Assay results gathered from unrelated publications.
Several values in a cell are separate wells, animals, samples, runs or records. ± gives the spread as reported.
UCHL1: Ubiquitin carboxyl-terminal hydrolase isozyme L1 (UCHL1, Homo sapiens, UniProt P09936)
Chain of UniProt P09936 (whole entry, looked up): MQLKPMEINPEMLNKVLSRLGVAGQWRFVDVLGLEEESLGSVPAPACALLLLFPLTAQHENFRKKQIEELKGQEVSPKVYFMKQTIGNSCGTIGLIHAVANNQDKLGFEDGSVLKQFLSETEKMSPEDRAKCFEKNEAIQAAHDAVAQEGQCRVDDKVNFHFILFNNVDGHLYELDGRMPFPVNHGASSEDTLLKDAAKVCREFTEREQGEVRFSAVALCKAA

Under “geometric mean ratio Cmax”, `Cc1nc(-c2ccc(OCC(C)C)c(C#N)c2)sc1C(=O)O` is recorded as 122 (human, plasma; oral, 20 mg, together with: verinurad 5 mg; reference: test over reference).
`C[C@H]1CN(C(=O)CC#N)[C@]12CCN(c1ncnc3[nH]ccc13)C2` — result for “subjects with Dizziness”: 3.1% (healthy human; oral, dose not given).
The C0 of `O=C(O)c1cc(O)c(O)c(O)c1` is reported as 11.4 ± 3.94 µM (chicken Ross broiler, male, serum; intravenous, 0.49 mg/kg).
`CCC(=O)NCC[C@@H]1CCc2cc(O)c3c(c21)CCO3` gave a specific activity of 1.3 ± 0.26 pmol/min/mg (sulfation, substrate; pooled human lung cytosol; 50 µM, 30 min, together with: 50 mM NaF).
Under “placebo-corrected change from baseline”, `N#Cc1ccc(-c2cnc3ccc(-c4ccc(C(=O)N5CCOCC5)cc4)cn23)cc1` is recorded as -3.6 ms (item: PR interval; healthy volunteers; oral, 20 mg, fasted, time-averaged).
The AUC(0-inf) of `CCN1CCN(Cc2ccc(NC(=O)c3ccc(C)c(NC(=O)c4cncc(-c5cccs5)c4)c3)cc2C(F)(F)F)CC1` is reported as 4900 ng·h/mL (C57BL/6 mice, epithelial lining fluid; intraperitoneal, 15 mg/kg).
`CC(C)(C(=O)N1CCOc2c(C#N)cncc2C1)C(F)F`: “subjects with TEAE” 0% (item: ventricular extrasystoles; healthy humans, both sexes; oral, 20 mg single dose).
`Cc1cc(NC2CCN(C(=O)OC3CCN(C(=O)/C=C/CN(C)C)C3)CC2)n2ncc(C(C)C)c2n1` (centres unmarked) — result for “patients with TEAE”: 0% (CTCAE v4.0, item: Headache; patients with advanced solid tumours; oral, dose not given, TIW, grade 3 or higher).
Under “plasma glucose concentration”, `C[C@H]1CN(c2n[nH]c3nc(N[C@H]4CC[C@H](NS(=O)(=O)CCC(F)(F)F)CC4)ncc23)CCO1` is recorded as 1.44 fold (male Han Wistar rat; oral, 1000 mg/kg/day, 7 days; reference: vehicle).
`C=CC(=O)Nc1cc(Nc2nccc(-c3cn(C)c4ccccc34)n2)c(OC)cc1N(C)CCN(C)C` has a recovery of 87.4% (storage stability; human dried blood spots; 24 h, -80 °C, medium QC level).
For `CC1(C)CCC(CN2CCN(c3ccc(C(=O)NS(=O)(=O)c4ccc(NCC5CCOCC5)c([N+](=O)[O-])c4)c(Oc4cnc5[nH]ccc5c4)c3)CC2)=C(c2ccc(Cl)cc2)C1`, “C6 fold change” read 1 (patients on VA-based chemotherapy; oral, dose not given, 6 h, together with: triazole antifungals; reference: without triazoles).
For `OC(COc1ccc2cc(Br)ccc2c1)Cn1ccnc1` (centres unmarked), the inhibition was -6.4% (Trypanosoma cruzi; reporter translation, Renilla luciferase mRNA translation; cell-free extract; 40 µM; reference: DMSO).
For `O=C(OC(C(F)(F)F)C(F)(F)F)N1CCN(Cc2cccc(Oc3ccccc3)c2)CC1`, the Ktrans was 0.0496 min⁻¹ (PET blocking study; rhesus monkey, brain HIP; 0.1 mg/kg, compound pretreatment, together with: [18F]T-401 tracer).
For `COCc1cc(C(=O)Nc2cc([C@H]3CC[C@@H](OC(=O)NC(C)C)C3)[nH]n2)n(C)n1`, the unbound Cmax was 7.37 µM (OVCAR-3 xenograft, NOD/SCID gamma mice, plasma; oral, 175 twice daily, tumour growth inhibition study).
`CC(C)NCCCC[C@@H]1NC(=O)[C@H](Cc2ccc(O)cc2)NC(=O)[C@H](Cc2ccccc2)NC(=O)CC[C@H](C(=O)N[C@@H](CCCCNC(C)C)C(=O)N[C@@H](CCCCNC(=O)[C@H](CCC(=O)O)NC(=O)[C@H](CCC(=O)O)NC(=O)[C@H](CCC(=O)O)NC(=O)CN2CCN(CC(=O)O)CCN(CC(=O)O)CCN(CC(=O)O)CC2)C(N)=O)NC(=O)CNC(=O)[C@H](Cc2ccc3ccccc3c2)NC(=O)[C@@H](CCCNC(=N)N)NC1=O` [gallium-68 labelled] has a tissue uptake of 0.62 %ID/g (mouse with Granta-519 xenograft, lung; intravenous, 1 h).
For `O=[N+]([O-])c1cnc2ccc(F)cc2c1O`, the maximum haemolysis was 3.1% (sheep erythrocytes; 1 h, pH 7.5).
`O=C(O)CCC(=O)O.[2H]C([2H])([2H])Oc1cc(C)c2[nH]ccc2c1CN1CC[C@@H](C2CC2)C[C@H]1c1ccc(C(=O)O)cc1` — result for “TEAE T wave abnormality”: 0% (ECG; healthy Chinese subjects; oral, 100 mg twice daily, multiple ascending dose).
For `O=C(COc1ccc(Cl)cc1)NC12CC(c3nnc([C@H]4C[C@@H](OC(F)(F)F)C4)o3)(C1)C2`, “treatment-emergent adverse events” read 63.9% (at least 1 event; human, both sexes; oral, dose not given, single ascending dose, fasted, all doses; reference: subjects).
`Cn1c(C(F)(F)F)cc(=O)n(-c2cc(Oc3cccnc3OCC(=O)O)c(Cl)cc2F)c1=O` has a Tmax of 3.5 h (beagle dog, female, plasma; oral capsule, 300 mg/kg/day epyrifenacil, week 13, 90-day study).
`CCN1/C(=C/C(C)=O)Sc2ccc(F)cc21`: “systolic blood pressure change” 95.9 ± 7.6% (cynomolgus monkey; oral, 100 mg/kg, 24 h post-dose; reference: pre-dose).
Under “grade ≥3 hyperbilirubinemia patients”, `Cc1ccc(C(=O)N(CCCN)C(c2nc3snc(C)c3c(=O)n2Cc2ccccc2)C(C)C)cc1` (centres unmarked) is recorded as 0% (human patients; intravenous, 7 mg/day).
`CC(C)c1nc(N(C)S(C)(=O)=O)nc(-c2ccc(F)cc2)c1/C=C/[C@@H](O)C[C@@H](O)CC(=O)O` has a plasma concentration of 614 ng/mL (Wistar albino rat, both sexes, plasma; oral, 20 mg/kg, 5.5 h).
`CCc1cc(C(=O)NC)c2nccc(N3CCc4c(cc(Cn5ccnc5)cc4-c4cn(C)nc4C(F)(F)F)C3=O)c2c1` — result for “serum TBIL level”: 1.9 ± 0.26 µmol/L (Sprague Dawley rats; oral, 100 mg/kg twice daily, 7 days).
For `CCN1CCN(Cc2ccc(Nc3ncc(F)c(-c4cc(F)c5nc6n(c5c4)[C@H](C)CCC6)n3)nc2)CC1`, the CL/F was 33.2 L/h (human, plasma; 100 mg single dose, mean).
`NC[C@@]1(CC(=O)O)[C@@H]2CC[C@H]3C[C@@H]2[C@@H]1C3`: “unbound AUC(0-t) increase” 14.7% (human, mild renal impairment, plasma; dose not given; reference: normal renal function).
The remaining compound of `Cc1cc(NC(=O)c2cccc(NC(=O)/C=C/CN(C)C)c2)ccc1Nc1nccc(-c2cccnc2)n1` is reported as 92.7% (primary hepatocytes, rat Wistar male; 1 µM, 10 min).
The SUV of `CNc1ccc(-c2nc3ccc(O)cc3s2)cc1` [carbon-11 labelled] is reported as 0.637 ± 0.388 (microPET/CT imaging; APP/PS1 mouse, AD model, heart; intravenous, 20 min).
`Oc1ccc(Cl)c2cccnc12` has a pKa (acidic) of 9.1.
Under “urinary calcium excretion change”, `Cc1ccc([C@@H]2O[C@H](CO)[C@@H](O)[C@H](O)[C@H]2O)cc1Cc1ccc(-c2ccc(F)cc2)s1` is recorded as -33.6 mg (Japanese type 2 diabetes patients; 200 mg, day 2, 24 h urine collection; reference: baseline).
For `N#Cc1ccc2c(c1)[C@H]1CCCN(C(=O)c3ccc4[nH]cnc4c3)[C@H]1C2`, “maximum ACTH level” read 15.6 pmol/L (human; 240 mg, day 7).
`CC1(C)S[C@@H]2[C@H](NC(=O)[C@H](N)c3ccc(O)cc3)C(=O)N2[C@H]1C(=O)O`: “mean blood pressure” 38 ± 0.3 mmHg (male Hartley guinea pigs, anaesthetized; intravenous, 10 mg/kg group, baseline before infusion).
For `COc1ccc(C[C@@H](C)[C@@H](C)Cc2ccc(OC)c(OC)c2)cc1OC`, the Cmax was 3320 ± 627 ng/mL (beagle dog male, plasma; oral, 300 mg/kg/day, day 1).
`COc1c(N2C[C@@H]3CCCN[C@@H]3C2)c(F)cc2c(=O)c(C(=O)O)cn(C3CC3)c12` — result for “mean blood pressure”: 34 ± 0.1 mmHg (male Hartley guinea pigs, anaesthetized; intravenous, 1 mg/kg over 10 min, after infusion).
The pKa (basic) of `CCn1cc(C(=O)O)c(=O)c2ccc(C)nc21` is reported as < 2.
`N[C@@H](C[18F])C(=O)O`: “maximum muscle uptake” 1.68 ± 0.27 %ID/cc (PET; athymic nude mouse; intravenous, 15 min).
The body weight of `O=C(/C=C/CCc1ccc(O)cc1)/C=C/c1ccc(O)cc1` is reported as 19.4 ± 1.67 g (nude mouse MCF7 xenograft; 10 mg/kg, day 0).
`Cc1cccc(CNC(=O)c2cn(CCNC(=O)c3ccccc3Sc3c([N+](=O)[O-])ncn3C)c3cc4c(cc3c2=O)OC(F)(F)O4)n1` gave a C0 of 456 ± 77.9 ng/mL (Sprague-Dawley rat, male, whole blood; intravenous, 5 mg/kg).
`CCCCc1oc2ccccc2c1C(=O)c1cc(I)c(OCCN(CC)CC)c(I)c1`: “mean blood pressure” 30 ± 0.2 mmHg (male Hartley guinea pigs, anaesthetized; intravenous, 10 mg/kg over 10 min, after infusion).
For `CNC(=O)c1ccc(-c2cnc3ncc(Cc4ccc5ncccc5c4)n3n2)cc1F`, the unbound AUC(0-inf) was 147 ng·h/mL (human mild hepatic impairment; oral, 200 mg single dose, adjusted geometric mean).
For `CC(C)[N+](C)(CCOC(=O)C1c2ccccc2Oc2ccccc21)C(C)C`, the remaining compound was 31.9% (human, both sexes, whole blood; 5 µM, 60 min).
With `COc1ncc(-c2nc3c(n2C(C)C)[C@H](c2ccc(Cl)cc2)N(c2cc(Cl)cn(C)c2=O)C3=O)c(OC)n1` the median Tmax was 8 h (human patients, plasma; oral, 1 mg, cycle 1 day 1, low-dose).
`Cc1ccc(C(=O)Nc2ccnc(S(N)(=O)=O)c2)c(N2CCCC(F)(F)CC2)n1`: “unbound plasma concentration” 0.198 ± 0.0145 µM (rhesus monkey, plasma; intravenous, dose not given, 60 min).
`CCOc1c([C@H](C)n2nc(C)c3c(N)ncnc32)cc(Cl)c(F)c1[C@@H]1CNC(=O)C1` has an ECG observations of 98.3% (item: QTcF ≤450 ms; previously treated B-cell malignancy; oral, 30 mg once daily, baseline QTcF ≤450 ms).
`CCn1cc(C(=O)N2CCOCC2)c(=O)c2cc(NC3Cc4ccccc4C3)cnc21` gave an AUC(0-inf) of 4930 ng·h/mL (human, fasted; oral suspension, 300 mg single dose, arithmetic mean).
With `NC(=O)N1c2ccccc2C=Cc2ccccc21` the ALT was ≤ 112 U/L (human, serum; concentration not given).
`Cn1cc(Nc2nccc(-c3ccc4c(c3)CN(C3COC3)CC[C@H]4NC(=O)c3cn(C(C)(C)C)nn3)n2)cn1` — result for “CD8+ T cell count change”: -3.15% (human, whole blood; 150 mg twice daily, day 7; reference: pre-dose baseline).
Under “treatment-emergent adverse events”, `O=C(Nc1nc2cccc(-c3ccc(CN4CCS(=O)(=O)CC4)cc3)n2n1)C1CC1` is recorded as 0% (item: asthenia; human rheumatoid arthritis patients; oral, 75 mg once daily, 4 weeks, regardless of relatedness).
Under “mean blood pressure”, `CC(C)(C)c1ccc(C(O)CCCN2CCC(C(O)(c3ccccc3)c3ccccc3)CC2)cc1` (centres unmarked) is recorded as 36 ± 0.3 mmHg (male Hartley guinea pigs, anaesthetized; intravenous, 3 mg/kg group, baseline before infusion).
Under “mean arterial pressure change”, `Cc1c(-c2ccc(N3CCc4cccc(C(=O)Nc5nc6ccccc6s5)c4C3)nc2C(=O)O)cnn1CC12CC3(C)CC(C)(C1)CC(OCCNCC[C@H](O)CO)(C3)C2` is recorded as -35% (beagle dog, male, anaesthetised; intravenous infusion, 0.3 mg/kg/min, 105 min; reference: vehicle).
With `N#CC(=Cc1ccncc1)C(=O)Nc1ccccc1Cl` the labelling was 10.2% (UCHL1; covalent, intact protein LC-MS; 12.5 µM).
`C/C=C/C[C@H](C)[C@@H](OC)[C@@H](C)[C@H](O)C[C@H]1OC(=O)C=C[C@H]1CC`: “plasma protein binding” 93% (rat).
`Cc1cc(Nc2cc3ncccc3c(N[C@@H]3C[C@H]4CC[C@@H](C3)N4CCC#N)n2)n[nH]1` — result for “papular rash incidence”: 0% (healthy human subjects; oral, 1000 mg, 2 weeks, single ascending dose).
`Cc1ccc(Sc2ccccc2N2CCNCC2)c(C)c1` has a vomiting incidence of 0% (healthy adult men; oral, 2.5 mg single dose, treatment-emergent adverse events).
`CNCc1ccc(-c2[nH]c3cc(F)cc4c3c2CCNC4=O)cc1` has a constipation incidence of 0% (patients; oral, 240 mg twice daily, all grades).
For `CSc1ccc(OCc2ncc([N+](=O)[O-])n2C)cc1`, the inhibition was 1.8% (Trypanosoma cruzi; reporter translation, Renilla luciferase mRNA translation; cell-free extract; 40 µM; reference: DMSO).
The labelling of `COc1ccc(Cc2cnc(NC(=O)CCl)s2)cc1` is reported as 76.7% (UCHL1; covalent, intact protein LC-MS; 12.5 µM).
`CCC(CC)C(=O)Oc1cccc(C(O)CCN)c1.O=CO` (centres unmarked): “ERG a-wave amplitude” 112 µV and 9 µV and 64 µV and 77 µV and 104 µV and 75 µV (scotopic ERG; BALB/cJ mice; intraperitoneal, 10 mg/kg, 8 h dark adaptation, together with: 10,000 lx photobleach, 10 min).
`Cl.[2H]C([2H])([2H])CC(=O)c1cnc(NC(=O)C2CC2)cc1Nc1cccc(-c2ncn(C([2H])([2H])[2H])n2)c1OC` has a half-life of 7.85 h (geometric mean; human; oral, 17.5 mg single dose, fasted, liquid).
`CNC(=O)c1ccc(-c2cnc3ncc(Cc4ccc5ncccc5c4)n3n2)cc1F` — result for “upper abdominal pain incidence (all grades)”: 13% (CTCAE v4.0, any causality; human cancer patients; oral, dose not given, dose escalation).
